Measured values from different studies.
A part holds a random share of what one study measured.

Study 1
Target: Sal-like protein 4, full length isoform B (SALL4, Homo sapiens, UniProt Q9UJQ4-2, residues 1-616)
Method: universal PBM
Molecule type: double-stranded DNA, one strand shown
Matrix: in vitro
Concentration: not given
Notes: 8-mer, flanks averaged, mean of replicates
Direction: higher = stronger binding
Residues (chain): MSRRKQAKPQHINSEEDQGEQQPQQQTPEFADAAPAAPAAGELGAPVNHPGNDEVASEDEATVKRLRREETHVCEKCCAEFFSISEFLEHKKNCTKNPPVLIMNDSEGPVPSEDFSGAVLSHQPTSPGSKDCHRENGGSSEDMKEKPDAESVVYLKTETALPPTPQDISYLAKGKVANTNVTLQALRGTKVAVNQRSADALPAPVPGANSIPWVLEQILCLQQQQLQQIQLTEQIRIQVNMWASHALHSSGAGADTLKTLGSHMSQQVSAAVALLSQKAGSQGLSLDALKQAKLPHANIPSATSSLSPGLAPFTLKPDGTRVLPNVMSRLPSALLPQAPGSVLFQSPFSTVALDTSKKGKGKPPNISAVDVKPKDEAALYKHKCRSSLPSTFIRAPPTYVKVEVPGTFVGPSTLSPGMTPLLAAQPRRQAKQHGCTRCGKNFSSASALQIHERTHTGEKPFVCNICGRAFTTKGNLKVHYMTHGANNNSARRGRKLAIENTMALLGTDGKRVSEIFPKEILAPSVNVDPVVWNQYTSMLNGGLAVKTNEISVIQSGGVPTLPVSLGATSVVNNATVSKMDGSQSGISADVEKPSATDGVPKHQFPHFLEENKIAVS
| Oligonucleotide | E-score |
| --- | --- |
| ATAAGGCG | 0.0984 |
| GCAGGCTA | -0.251 |
| GGGTGGTA | -0.0993 |
| GGTCAATA | 0.171 |
| AGTTCGGA | -0.194 |
| CTCGATAA | 0.128 |
| GATACGAA | 0.106 |
| CTACTATA | 0.253 |

Study 2
Target: Hepatocyte nuclear factor 3-beta, forkhead domain (FOXA2, Homo sapiens, UniProt Q9Y261, residues 142-269)
Method: protein-binding microarray
Molecule type: double-stranded DNA, one strand shown
Matrix: in vitro
Concentration: not given
Notes: k-mer, scored over probes, only values ≥0.25
Direction: higher = stronger binding
Construct (chain): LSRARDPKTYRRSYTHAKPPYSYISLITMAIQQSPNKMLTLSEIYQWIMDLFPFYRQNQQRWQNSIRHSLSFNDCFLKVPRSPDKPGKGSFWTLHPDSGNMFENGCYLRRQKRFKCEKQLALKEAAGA
| Oligonucleotide | E-score |
| --- | --- |
| CAAACAGA | 0.275 |
| ATAATTGC | 0.266 |
| CCATATAG | 0.271 |
| TGCATACA | 0.397 |
| ATAACAAG | 0.312 |
| ATAGTCTG | 0.26 |
| ATAATCAT | 0.34 |
| TCAAATAA | 0.324 |
| ATGATTAC | 0.267 |

Single results of other studies
| Molecule | tested on | assay | system | setting | how to read | quantity | value |
| --- | --- | --- | --- | --- | --- | --- | --- |
| BRIX1 (Homo sapiens, UniProt Q8TDN6) | EBNA1BP2 (Homo sapiens, UniProt Q99848) | cross-linking MS | – | hits only | – | interaction screen | cross-linked |
| PhoQ, residues 284 288 289 292 302 303 TTCLQL | PhoP, residues 12 14 15 18 19 HEGLL (Escherichia coli, UniProt P23836) | Sort-seq, item: YFP reporter | E. coli | PhoQ-PhoP variant library, added: 10 µM Mg2+ | baseline: high Mg2+ state, higher = stronger signaling | fold induction | 7.57 |

Repeated from above (study 2):
| Oligonucleotide | E-score |
| --- | --- |
| ATAATCAT | 0.34 |
